Measured values from different studies.
Each line is one published result; not all experiments were run side by side. Several values in a cell are separate wells, animals, samples, runs or records. Numbers after ± are the reported error.

SMILES = CCc1nc2ccc(Cl)cn2c1C(=O)NCc1ccc2oc(-c3ccc(OC(F)(F)F)cc3)nc2c1; tested on = Mycolicibacterium smegmatis; conditions = 72 h; measurement = MIC; value = > 100 µM
SMILES = C[C@@H](O)[C@@H]1NC(=O)[C@@H](NC(=O)CCOCCOCCOCCOCCNC(=O)c2ccc(NN)nc2)CSSC[C@@H](C(=O)O)NC(=O)[C@H](Cc2c[nH]cn2)NC(=O)[C@H](CO)NC(=O)[C@H](Cc2ccccc2)NC(=O)[C@@H]2CCCN2C(=O)[C@H](CO)NC(=O)[C@@H]2CCCN2C1=O [technetium-99m labelled]; system = mouse HCT-116 xenograft, lung; conditions = intravenous, 37 MBq, postmortem after imaging; measurement = tissue uptake; value = 0.11 ± 0.03 %ID/g
SMILES = FC(F)(F)c1cccc(CNc2nc(NC3CCN(Cc4ccccc4)CC3)c3nc[nH]c3n2)c1; tested on = Cryptococcus neoformans; assay = mRNA level, RNA-seq, refers to: ASP1 CNAG_02161; conditions = 48 µg/mL, 3 h; scale = reference: untreated; measurement = fold change; value = 1.32
SMILES = CCn1ccc(-c2cc([C@@H](C)NC(=O)c3cc(OCCN(C)C)ccc3C)c3ccccc3n2)n1; tested on = Vero E6; conditions = 250 µM; measurement = viability; value = 0% and 0.158%
SMILES = COc1ccccc1-c1ccncc1C(=O)Nc1nnc(OCc2ccc(Cl)cc2)s1; tested on = RPE-1 BRCA1 WT parental; conditions = 4 µM, run 1; scale = reference: untreated; measurement = colony survival; value = 72.2%
SMILES = CC(C)(C)C(=O)OCOP(=O)(OCOC(=O)C(C)(C)C)C1CCCN(O)C1=O (stereo not drawn); tested on = HCT-15; measurement = TGI; value = 14.8 µM
SMILES = CC[C@H](C)CCCCC(=O)N[C@@H](CCN)C(=O)N[C@H](C(=O)N[C@@H](CCN)C(=O)N[C@H]1CCNC(=O)[C@H]([C@@H](C)O)NC(=O)[C@H](CCN)NC(=O)[C@H](CCN)NC(=O)[C@H](CC(C)C)NC(=O)[C@@H](CC(C)C)NC(=O)[C@H](CCN)NC1=O)[C@@H](C)O; tested on = Escherichia coli; assay = daily serial passaging; system = ATCC 8739; conditions = highest sub-MIC, 19 days; scale = reference: initial MIC; measurement = MIC fold change; value = 1.63
SMILES = Cc1cc(Oc2nc(N3CC[C@@H](c4ccncc4)C3)ncc2F)[nH]n1; tested on = EFO-21; assay = cell proliferation; measurement = IC50; value = 75.9 µM
SMILES = Cc1ccc(N2CCN(C)[C@H](C)C2)cc1C(=O)N[C@H](C)c1cc(-c2cnn(C)c2)nc2ccccc12; tested on = African green monkey cells; conditions = 31.25 µM; measurement = viability; value = 102%
SMILES = Cc1cc(C(=O)Nc2nc3cccc(C)c3n2[C@H]2CCCCN(C(=O)/C=C/CN(C)C)C2)ccn1; tested on = Trypanosoma brucei brucei; system = 2T1 CLK1 C215S overexpressing; conditions = 0.2778 µM, 72 h; measurement = survival; value = 78.5% and 93.9% and 87.4% and 77.1% and 80.7% and 93.2%
SMILES = Cc1nc2cc(OC(F)(F)F)ccn2c1C(=O)NCc1ccc2oc(-c3ccc(OC(F)(F)F)cc3)nc2c1; tested on = Mycolicibacterium smegmatis; measurement = MIC90; value = > 100 µM
SMILES = O=C(NCc1cc(F)cc(F)c1)[C@@]1(O)CCN(c2ccc3[nH]ccc3c2)C1=O; system = sample G PDX mouse; conditions = dose not given, RTV endpoint 500%; measurement = median survival time; value = 33 days
SMILES = Nc1ncc(-c2cc(-c3cnn(CC(F)(F)F)c3)ncc2F)nc1C(=O)NC1CNCC(F)C1 (stereo not drawn); tested on = ABL1(H396P)-phosphorylated; assay = KINOMEscan competition binding; conditions = 1 µM; scale = reference: DMSO control; measurement = remaining binding; value = 62%
SMILES = CC(O)CN.O=C(O)C(Cl)Cl; tested on = Amaranthus retroflexus; assay = herbicidal activity; conditions = 15 mg/mL, 21 days, pre-emergence greenhouse; measurement = inhibition; value = 0%
SMILES = CCc1nn(C)c2nc(-c3ccc(C(=O)O)cc3)nc(NCc3ccccc3)c12; tested on = Cryptosporidium parvum; system = HCT-8; conditions = 12 x EC90, 72 h; scale = reference: DMSO control; measurement = parasite number; value = 25.4% and 27.1% and 28.5% and 29.9%
SMILES = CC[C@H](C)[C@H](NC(=O)[C@H](CC(=O)O)NC(=O)[C@@H](NC(=O)[C@@H]1CCCN1C(=O)[C@@H](N)CCCNC(=N)N)[C@@H](C)O)C(=O)N[C@@H](CCCCN)C(=O)N[C@H]1CSSC[C@@H]2NC(=O)[C@H](CCCNC(=N)N)NC(=O)CNC(=O)[C@H](CC(N)=O)NC(=O)[C@H]([C@@H](C)O)NC(=O)[C@H](CCCCN)NC(=O)CNC(=O)[C@H](Cc3ccccc3)NC(=O)[C@H](CCCNC(=N)N)NC(=O)[C@H](CO)NC(=O)[C@H](CCCCNC(=O)OCc3cc(OC)c(OC)cc3[N+](=O)[O-])NC(=O)[C@@H]3CSSC[C@@H](C(=O)N[C@@H](Cc4ccccc4)C(=O)O)NC(=O)[C@H](CC(=O)O)NC(=O)[C@H](CSSC[C@H](NC(=O)[C@H](CCC(N)=O)NC(=O)[C@H](Cc4ccc(O)cc4)NC(=O)[C@H](CO)NC(=O)[C@H](CCC(=O)O)NC(=O)[C@H](CO)NC1=O)C(=O)N[C@@H](Cc1ccccc1)C(=O)N1CCC[C@H]1C(=O)N[C@@H](C(C)C)C(=O)N3)NC(=O)[C@H](Cc1ccccc1)NC(=O)CNC(=O)[C@H](CC(N)=O)NC(=O)[C@H](C(C)C)NC2=O; tested on = human iPS-derived cardiomyocytes; conditions = 200 nM, no illumination, 1000 ms cycle; measurement = APD70; value = 257 ± 46.9 ms
SMILES = CC[C@H](C)[C@H](NC(=O)[C@H](CC(C)C)NC(=O)[C@H](CC(C)C)NC(=O)[C@H](CC(=O)O)NC(=O)[C@@H](NC(=O)[C@H](CCC(=O)O)NC(=O)[C@H](CCCCN)NC(=O)[C@H](Cc1ccc(O)cc1)NC(=O)[C@H](CCCCN)NC(=O)[C@H](Cc1c[nH]cn1)NC(=O)CNC(=O)CN)[C@@H](C)O)C(=O)N[C@@H](CC(C)C)C(=O)N[C@@H](Cc1ccccc1)C(=O)N[C@@H](CCCCN)C(=O)N[C@@H](CC(=O)O)C(=O)N[C@@H](CC(=O)O)C(=O)N[C@@H](Cc1ccc(O)cc1)C(=O)N[C@@H](Cc1ccccc1)C(=O)N[C@@H](C)C(=O)N[C@@H](CCCCN)C(=O)N[C@@H](CCCCN)C(=O)N[C@@H](CC(N)=O)C(=O)N[C@@H](CCC(=O)O)C(=O)N[C@@H](CCC(=O)O)C(=O)N[C@@H](CCCNC(=N)N)C(=O)N[C@@H](CCCCN)C(N)=O; tested on = HCV IRES RNA; assay = RNA cleavage, MALDI-TOF mass spectrometry; system = hepatitis C virus; measurement = initial rate; value = 4.5 ± 1.4 %/min
SMILES = CC[C@H](C)[C@@H]1NC(=O)[C@H](Cc2c[nH]cn2)NC(=O)[C@H](CC(N)=O)NC(=O)[C@H](CO)NC(=O)[C@H](CCC(N)=O)NC(=O)[C@@H](NC(=O)CN)CSSC[C@@H]2NC(=O)CNC(=O)[C@H](C)NC(=O)[C@H](CC(C)C)NC(=O)[C@@H]3CSSC[C@@H](C(=O)NCC(=O)O)NC(=O)[C@H](Cc4ccccc4)NC(=O)CNC(=O)[C@H](CC(N)=O)NC(=O)[C@@H]4CCCN4C(=O)CNC(=O)[C@H](CSSC[C@H](NC(=O)[C@H](CCCNC(=N)N)NC(=O)[C@H](CC(N)=O)NC(=O)[C@H](Cc4c[nH]cn4)NC(=O)[C@H](CCCCN)NC(=O)[C@H](CC(C)C)NC1=O)C(=O)N[C@@H](CCCCN)C(=O)N[C@@H](CCC(N)=O)C(=O)N[C@@H](CC(=O)O)C(=O)N[C@@H](CO)C(=O)N[C@@H](CC(=O)O)C(=O)N3)NC(=O)[C@H](C(C)C)NC2=O; tested on = HEK293, Wnt1-transfected; assay = Wnt signalling; measurement = IC50; value = 0.051 ± 0.021 µM
SMILES = CC(C)CC(C(=O)N1CC2(CC1C#N)C(=O)Nc1ccccc12)N(C)C(=O)c1cc2c(F)cc(F)c(F)c2[nH]1 (stereo not drawn); tested on = Human coronavirus 229E; assay = cytopathic effect; system = MRC5; conditions = 20 nM; measurement = inhibition; value = 112%
SMILES = COc1ccccc1-c1n[nH]c2nc(N[C@H]3CC[C@H](NS(=O)(=O)CC(C)C)CC3)ncc12; assay = bead binding, competition bead pull-down, refers to: LINJ.35.5300; system = Leishmania donovani extract; conditions = 10 µM; scale = reference: vehicle; measurement = relative abundance; value = 0.97
SMILES = CN1C(=O)C(C2C3=C(CC(C)(C)CC3=O)Oc3ccc([N+](=O)[O-])cc32)C(=O)N(C)C1=O (stereo not drawn); tested on = 3T3-L1 during adipogenesis; assay = Oil Red O; conditions = IC20; scale = reference: untreated; measurement = lipid content reduction; value = ~80%
SMILES = O=C1NC2(CC2)COc2ncc(F)cc2[C@H]2COCCN2c2ccn3ncc1c3n2; system = Sprague-Dawley rat, female, uterus; conditions = oral, 2.5 mg/kg/day, 4 weeks, end of treatment; measurement = organ-to-body weight ratio; value = 0.131 ± 0.027%
SMILES = COc1ccccc1-c1n[nH]c2nc(NC3CCN(C(=O)Cc4ccc(F)cc4F)CC3)ncc12; assay = bead binding, competition bead pull-down, refers to: LMJF.21.0015; system = Leishmania donovani extract; conditions = 10 µM; scale = reference: vehicle; measurement = relative abundance; value = 1.11
SMILES = Cc1ccc2c(n1)c(-c1cccc(S(C)(=O)=O)c1)c(C)n2C/C(F)=C/CN; tested on = androgen receptor (human); assay = radioligand binding; conditions = 10 µM, added: testosterone; measurement = inhibition; value = -4%
SMILES = O=C(O)c1ccc(-c2nc(-c3ccccc3Cl)c3sccn23)cc1; system = C57BL/6 mice; conditions = dose not given, day 11, basal hematopoiesis; measurement = platelet count change; value = 81.6% and 89.8% and 97% and 116%
SMILES = Cc1ccn2c(C(=O)NCc3ccccc3)c(C)nc2c1; tested on = Mycolicibacterium smegmatis; conditions = 72 h; measurement = MIC; value = > 100 µM
SMILES = CN[C@@H]1[C@H](O)[C@H](NC)[C@H]2O[C@]3(O)[C@H](O[C@@H]2[C@H]1O)O[C@H](C)C[C@H]3NC(=O)Cc1cc(Cl)ccn1; tested on = GABA transporter; assay = binding; conditions = 10 µM; measurement = inhibition; value = 14%

Some of these lines once more:
SMILES = CC(C)(C)C(=O)OCOP(=O)(OCOC(=O)C(C)(C)C)C1CCCN(O)C1=O (stereo not drawn); tested on = HCT-15; measurement = TGI; value = 14.8 µM
SMILES = CC[C@H](C)[C@H](NC(=O)[C@H](CC(C)C)NC(=O)[C@H](CC(C)C)NC(=O)[C@H](CC(=O)O)NC(=O)[C@@H](NC(=O)[C@H](CCC(=O)O)NC(=O)[C@H](CCCCN)NC(=O)[C@H](Cc1ccc(O)cc1)NC(=O)[C@H](CCCCN)NC(=O)[C@H](Cc1c[nH]cn1)NC(=O)CNC(=O)CN)[C@@H](C)O)C(=O)N[C@@H](CC(C)C)C(=O)N[C@@H](Cc1ccccc1)C(=O)N[C@@H](CCCCN)C(=O)N[C@@H](CC(=O)O)C(=O)N[C@@H](CC(=O)O)C(=O)N[C@@H](Cc1ccc(O)cc1)C(=O)N[C@@H](Cc1ccccc1)C(=O)N[C@@H](C)C(=O)N[C@@H](CCCCN)C(=O)N[C@@H](CCCCN)C(=O)N[C@@H](CC(N)=O)C(=O)N[C@@H](CCC(=O)O)C(=O)N[C@@H](CCC(=O)O)C(=O)N[C@@H](CCCNC(=N)N)C(=O)N[C@@H](CCCCN)C(N)=O; tested on = HCV IRES RNA; assay = RNA cleavage, MALDI-TOF mass spectrometry; system = hepatitis C virus; measurement = initial rate; value = 4.5 ± 1.4 %/min
